{"data": "Measured values gathered from unrelated publications", "note": "Each numbered part is a random draw from the data of one study; scales do not carry over between parts. Changes are numbered by the printed parent chain."}
{"data": "Study 1", "target": "Interferon regulatory factor 3, full length, phosphomimetic (IRF3, Homo sapiens, UniProt Q14653, residues 1-427, S386D/S396D/S398D/S402D/T404D/S405D)", "method": "protein-binding microarray", "molecule type": "double-stranded DNA, one strand shown", "matrix": "in vitro", "concentration": "2540 nM top", "setting": "60-bp whole probe", "together with": "salmon DNA 0.4 mg/ml", "baseline": "random background probes", "reading": "higher = stronger binding", "constant ends, left off below": "GCCTAGCAC … GTCTTGATTCGCTTGACGCTGCTG", "Construct (chain)": "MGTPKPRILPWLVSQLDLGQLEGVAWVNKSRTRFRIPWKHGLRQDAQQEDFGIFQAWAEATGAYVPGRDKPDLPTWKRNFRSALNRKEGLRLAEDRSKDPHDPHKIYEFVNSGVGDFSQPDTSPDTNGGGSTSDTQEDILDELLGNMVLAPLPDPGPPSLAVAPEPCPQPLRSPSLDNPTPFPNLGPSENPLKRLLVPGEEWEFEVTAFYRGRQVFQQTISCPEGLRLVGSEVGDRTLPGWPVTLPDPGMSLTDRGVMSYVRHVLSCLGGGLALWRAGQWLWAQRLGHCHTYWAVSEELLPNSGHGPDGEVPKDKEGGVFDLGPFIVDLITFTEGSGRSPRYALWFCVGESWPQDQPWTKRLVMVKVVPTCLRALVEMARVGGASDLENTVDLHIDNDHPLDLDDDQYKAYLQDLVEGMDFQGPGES"}
{"Sequence": "TTAGGTTTCGGGTCTGGGTTAGTGCTA", "fitted relative affinity [z-score]": 5.09}
{"Sequence": "GACGGACTGCTACTACTGACGTGCTAG", "fitted relative affinity [z-score]": -0.566}
{"Sequence": "TTAGTTTTCAATTTTTGCATGTGCTAG", "fitted relative affinity [z-score]": 2.63}
{"Sequence": "GACGGTATCCTTCTCGTGACGTGCTAG", "fitted relative affinity [z-score]": 7.5}
{"Sequence": "TCACCTCCCTGTTTCCAACTGTGCTAG", "fitted relative affinity [z-score]": 2.08}
{"Sequence": "TCCAGGGCGGTGGGTGGCCCGTGCTAG", "fitted relative affinity [z-score]": -1.55}
{"Sequence": "GACGGTTTCCTTATCCTTACGTGCTAG", "fitted relative affinity [z-score]": 7.59}
{"Sequence": "TTAGGTATCGGTTTCGGTAAGTGCTAG", "fitted relative affinity [z-score]": 7.84}
{"Sequence": "ATTCTCTTCTTGCATCTGGGTGTGCTA", "fitted relative affinity [z-score]": 2.73}
{"Sequence": "GACGGTTTCGGTTCCGTGACGTGCTAG", "fitted relative affinity [z-score]": 9.47}
{"Sequence": "GACGGTATCCTACTGATGACGTGCTAG", "fitted relative affinity [z-score]": 2.55}
{"Sequence": "TTAGGTCTCGGTTTTGGTTAGTGCTAG", "fitted relative affinity [z-score]": 2.4}
{"Sequence": "TTAGATTTCGGGTTTCGATTCGTGCTA", "fitted relative affinity [z-score]": 4.04}
{"Sequence": "GACGGTATCGATTTTCGGGACGTGCTA", "fitted relative affinity [z-score]": 3.01}
{"Sequence": "TTAGAACTGAGTATAGATTAGTGCTAG", "fitted relative affinity [z-score]": -0.437}
{"Sequence": "TTAGGTATGGACACTGGGTTAGTGCTA", "fitted relative affinity [z-score]": -0.817}
{"data": "Study 2", "target": "Histone acetyltransferase KAT6A, winged helix 2, GST fusion (KAT6A, Homo sapiens, UniProt Q92794, residues 85-181)", "method": "protein binding microarray", "molecule type": "double-stranded DNA, one strand shown", "matrix": "in vitro", "concentration": "not given", "setting": "8-mer, flanks averaged, mean of 2 arrays, mostly near background", "baseline": "not given", "reading": "higher = stronger binding", "Target sequence (chain)": "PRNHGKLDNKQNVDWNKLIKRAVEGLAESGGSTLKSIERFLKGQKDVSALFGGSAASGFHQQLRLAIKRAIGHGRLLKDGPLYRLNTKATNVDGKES"}
{"Sequence": "GTGAAAAA", "E-score": 0.123}
{"Sequence": "TAATTATA", "E-score": 0.137}
{"Sequence": "TAAACGCA", "E-score": 0.00975}
{"Sequence": "CCCTTAAC", "E-score": -0.156}
{"Sequence": "GCTATTAC", "E-score": -0.057}
{"Sequence": "AGTGACAA", "E-score": 0.0892}
{"Sequence": "ACACAAGT", "E-score": -0.184}
{"Sequence": "CCCTCAAC", "E-score": 0.0106}
{"Sequence": "TCAGTCCA", "E-score": -0.108}
{"Sequence": "ACATACAA", "E-score": -0.074}
{"Sequence": "AATTTCTC", "E-score": 0.0632}
{"Sequence": "AGGCGCTA", "E-score": -0.0305}
{"Sequence": "ACTAGACG", "E-score": 0.0112}
{"Sequence": "AACGAAAT", "E-score": 0.0873}
{"Sequence": "ACAGTTCT", "E-score": -0.178}
{"Sequence": "ACATACTG", "E-score": -0.164}
{"Sequence": "TCAGTTCA", "E-score": -0.203}
{"Sequence": "GCTCTGCA", "E-score": -0.00994}
{"Sequence": "AATTTACC", "E-score": -0.128}
{"Sequence": "AGCTGTCC", "E-score": -0.121}
{"Sequence": "AACAAAGT", "E-score": -0.00485}
{"data": "Study 3", "target": "RNA binding protein fox-1 homolog 2, RRM domain, GST-SBP tag (RBFOX2, Homo sapiens, UniProt O43251-10, residues 100-194)", "method": "RNA Bind-n-Seq", "molecule type": "RNA", "matrix": "in vitro", "concentration": "365 nM", "setting": "natural RNA segment, single round, ends assumed", "baseline": "no-protein control", "reading": "higher = stronger binding", "constant ends, left off below": "GGGAGUUCUACAGUCCGACGAUC … UGGAAUUCUCGGGUGCCAA", "Target sequence (chain)": "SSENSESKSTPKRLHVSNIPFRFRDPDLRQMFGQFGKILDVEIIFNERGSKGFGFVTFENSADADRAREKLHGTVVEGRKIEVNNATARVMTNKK"}
{"Sequence": "CCCAGCCUUGGUGAGCUCCAAGUUGAUGGGGGAGAGGGGAGAGUGGAGGAAAGCUCUUCUUGGUACAGUCUCCUCUUCCCACCAACUCCUCACGACUCUUCAUCAACCAA", "RBNS enrichment (R)": 0.625}
{"Sequence": "UCUCAGAAAGCCAUCAACAGGCUCUGGUAAAACAUAGGUAAAAAUGGGUGAUUAUGAUUGACACUCACCUGCCCUGGAAAGCCAGGGUGUGAGAUGGGUGUCUGGGAGUG", "RBNS enrichment (R)": 0.344}
{"Sequence": "UAAAGACAAGCAGGAGGGUCGACAUGGACUGAAUCACCCUCUGCAGCUGGGAGGGCUCUUCUGGGCGUCCGGGCAGCUGCAGCUGAGAGGACUUUCACACCAUAAGGAGA", "RBNS enrichment (R)": 0.385}
{"Sequence": "CUUUUUUUCCAUGGUGAAGAGCAAUAAACUCUGGAUGUUUGUGCGCGUGUGUGGACAGUCUUAUCUUCCAGCAUGAUAGGAUUUGACCAUUUUGGUGUAAACAUUUGUGU", "RBNS enrichment (R)": 0.871}
{"Sequence": "UAUUUAAGCUCACAUUAGAGUUAAGUUGUAUUUUAUGUUAUUUAUAGAUCUGAAUUUUCUAUGUUUAGCUAUUUAAUGUUAAUUUCCCACAAUCCAUGGGGGCGCUUAGU", "RBNS enrichment (R)": 0.763}
{"Sequence": "ACAUCCCCGCUGGCUGGGGGCCUCACUCCAGGAAGGGGCUGGACUGGCUGUCCUUUCCAGUGGCCUGGCUCCGCUGUGUGGAUGGGGAGAUCGGGGCCAGAGGCAGAACC", "RBNS enrichment (R)": 0.525}
{"Sequence": "AUCCUAGUGUCCCUCCCUCCUGCAUCUCCUGGUCUCCUUCUCCAGGACCUUCCCAGCUUCCCCUCAGGGUCCACAUCUUGAGCUUAAUAAAUGUGCAUUCGUUUUUUCCC", "RBNS enrichment (R)": 1.15}
{"Sequence": "AAUCUGUAUGCAUAAAGAAUGCACCACUCAACUUUUUUAUUCAUAAGCUAAUAUUUUUUUAAAGUUACAUUAAGAUUUUUUCUCUUUUGCAGCUACAUUUGAAAGUGAUA", "RBNS enrichment (R)": 0.88}
{"data": "Study 4", "target": "CCNB1, cyclin fold, Cln2 fusion (human)", "method": "yeast growth competition, sequencing", "matrix": "yeast", "setting": "weak parent motif", "baseline": "not given", "reading": "higher = stronger binding", "starting sequence": "CENPC docking peptide (human); VKTKKRLNFDDKV"}
{"Variant": "VKTKKRLNFDAKV [D11A]", "normalised enrichment score": 1.08}
{"Variant": "VKTKARLNFDDKV [K5A]", "normalised enrichment score": 0.751}
{"Variant": "VKTKRRLNLDDKV [K5R F9L]", "normalised enrichment score": 0.233}
{"Variant": "VATKKRLNFDDKV [K2A]", "normalised enrichment score": 0.904}
{"Variant": "VKAKKRLNFDDKV [T3A]", "normalised enrichment score": 0.658}
{"Variant": "VKTKKRLNFDDKA [V13A]", "normalised enrichment score": 0.417}
{"Variant": "VKTKKRLNADDKV [F9A]", "normalised enrichment score": 0.388}
{"data": "Study 5", "target": "PABPC1L2, full length, GST fusion (mouse, UniProt A0ABA7IW68)", "method": "RNAcompete", "molecule type": "RNA", "matrix": "in vitro", "concentration": "20 nM", "setting": "7-mer, probes averaged, single round", "baseline": "mean of 7-mers", "reading": "higher = stronger binding", "Construct (chain)": "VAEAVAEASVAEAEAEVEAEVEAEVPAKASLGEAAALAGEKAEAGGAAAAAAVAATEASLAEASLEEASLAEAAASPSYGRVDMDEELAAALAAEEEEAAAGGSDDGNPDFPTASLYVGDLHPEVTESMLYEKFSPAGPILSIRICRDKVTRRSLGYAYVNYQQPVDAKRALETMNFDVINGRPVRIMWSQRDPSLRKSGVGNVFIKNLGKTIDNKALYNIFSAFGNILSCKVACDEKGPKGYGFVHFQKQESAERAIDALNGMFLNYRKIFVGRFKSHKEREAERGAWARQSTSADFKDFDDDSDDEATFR"}
{"Sequence": "UCCGAGU", "7-mer Z-score": -0.177}
{"Sequence": "AGGGUAA", "7-mer Z-score": 0.242}
{"Sequence": "ACGUGGC", "7-mer Z-score": 0.149}
{"Sequence": "CCCGUGA", "7-mer Z-score": -0.266}
{"Sequence": "UCUGGUA", "7-mer Z-score": -0.0935}
{"Sequence": "CCUUGAC", "7-mer Z-score": -0.289}
{"Sequence": "UUGAUUC", "7-mer Z-score": -0.251}
{"Sequence": "UGGUCUU", "7-mer Z-score": -0.378}
{"Sequence": "GUCACUU", "7-mer Z-score": -0.193}
{"Sequence": "GCCCGUC", "7-mer Z-score": -0.329}
{"Sequence": "ACUAUUA", "7-mer Z-score": 0.0823}
{"Sequence": "GCACCGC", "7-mer Z-score": -0.133}
{"Sequence": "UAGCGCA", "7-mer Z-score": -0.0373}
{"Sequence": "CCGAUAG", "7-mer Z-score": -0.173}
{"Sequence": "GACCCGC", "7-mer Z-score": -0.394}
{"Sequence": "GGUUACU", "7-mer Z-score": -0.117}
{"Sequence": "UGCUGUA", "7-mer Z-score": -0.253}
{"Sequence": "AUGGGAU", "7-mer Z-score": 0.244}
{"Sequence": "UUAGAAC", "7-mer Z-score": -0.0428}
{"Sequence": "CAUGCUA", "7-mer Z-score": -0.0935}
{"Sequence": "CAUCCAA", "7-mer Z-score": 0.0352}
{"Sequence": "AAUCCCA", "7-mer Z-score": 0.0334}
{"Sequence": "CAGGCGU", "7-mer Z-score": 0.0551}
{"Sequence": "UUAAUGA", "7-mer Z-score": -0.0772}
{"note": "For quick reference, copied from above (study 5):"}
{"Sequence": "GACCCGC", "7-mer Z-score": -0.394}
{"Sequence": "GUCACUU", "7-mer Z-score": -0.193}
{"Sequence": "GCCCGUC", "7-mer Z-score": -0.329}
{"Sequence": "CAUCCAA", "7-mer Z-score": 0.0352}
{"Sequence": "UUAAUGA", "7-mer Z-score": -0.0772}
{"Sequence": "CCGAUAG", "7-mer Z-score": -0.173}
{"Sequence": "CCCGUGA", "7-mer Z-score": -0.266}
